Assay results pooled from the literature.
Lines come from different studies, so protocols differ. “And” joins repeats or separate records; there may be more than shown. Numbers after ± are the reported error. ≈ marks a conversion by molar mass, not a printed value.

For `Nc1nc(-c2ccccc2)nc2[nH]nc(Nc3ccc(C(F)(F)F)cc3)c12`, the clinical score was 0 (coxsackievirus B3; 31-1-93, NMRI mice, CVB3 chronic myocarditis; oral, 100 mg/kg twice daily, day 3, dosed days 0 to 6, score scale 0 to 7; direction not given).
`N=C(N)c1ccc(OCc2cccc(COc3ccc(C(=N)N)cc3)c2)cc1` — result for “MIC in combination”: 6.25 µg/mL (Escherichia coli; ATCC 25922; concentration not given, added: rifampicin).
`CO[C@H]1[C@H](O[C@H]([C@H]2O[C@@H](n3ccc(=O)[nH]c3=O)[C@H](O)[C@@H]2O)[C@H](NCCCNC(=O)[C@@H](NC(=O)[C@@H](NC(=O)N[C@H](C(=O)O)C(C)C)[C@@H]2CCN=C(N)N2)[C@@H](O)C(C)C)C(=O)O)O[C@H](CN)[C@H]1O` has an MIC90 of over 35 µg/mL (Bacillus cereus; microplate alamar blue; NRRL B-568).
With `CN(c1ccc(F)cc1)c1c(-c2cccc(F)n2)nc2ccccn12` the IC50 was 10.8 µM and 9.19 µM (Leishmania infantum; macrophages, MHOM/MA(BE)/67/ITMAP263, amastigote).
`O=C1C(Cl)=C(n2ccnc2)C(=O)c2ccccc21` — result for “zone of inhibition”: 8 mm (Bacillus cereus; MTCC 430; 10 µg/mL).
With `COc1ccc(S(=O)(=O)Nc2cc(OC)c(NC(=O)CCl)cc2OC)cc1` the selectivity index was 0.16 (Leishmania infantum; intracellular amastigote growth; U-937 macrophages and HeLa; baseline: IC50 HeLa over IC50 amastigotes).
`CCCCCCCCCC(=O)N[C@@H](Cc1c[nH]c2ccccc12)C(=O)N[C@H](CC(N)=O)C(=O)N[C@@H](CC(=O)O)C(=O)N[C@@H]1C(=O)NCC(=O)N[C@@H](CCCN)C(=O)N[C@@H](CC(=O)O)C(=O)N[C@H](C)C(=O)N[C@@H](CC(=O)O)C(=O)NCC(=O)N[C@H](CO)C(=O)N[C@@H]([C@H](C)CC(=O)O)C(=O)N[C@@H](CC(=O)c2ccccc2N)C(=O)O[C@@H]1C` has an MIC of over 128 µg/mL (Staphylococcus aureus; broth microdilution; MRSA USA300, Mueller-Hinton broth, Mg2+ 10 mg/L; 16 h, 37 °C, added: Ca2+ 0 mM).
For `Fc1cccc(N/N=C/c2ccc(-c3ccc(/C=N/Nc4cccc(F)c4F)cc3)cc2)c1F`, antifungal activity read “inactive” (Candida and Aspergillus; concentration not given, strain panel).
For `CN[C@H](CC(C)C)C(=O)N[C@H]1C(=O)N[C@@H](CC(N)=O)C(=O)N[C@H]2C(=O)N[C@H]3C(=O)N[C@H](C(=O)N[C@H](C(=O)O)c4cc(O)cc(O)c4-c4cc3ccc4O)[C@H](O)c3ccc(c(Cl)c3)Oc3cc2cc(c3O[C@@H]2O[C@H](CO)[C@@H](O)[C@H](O)[C@H]2O[C@H]2C[C@](C)(N)[C@H](O)[C@H](C)O2)Oc2ccc(cc2Cl)[C@H]1O`, the MIC50 was 1 µg/mL (≈ 0.69 µM) (Staphylococcus aureus; MRSA, 10 isolates; pH 7.0).
The inhibition of `O=c1c(-c2ccc(O[C@@H]3O[C@H](CO)[C@@H](O)[C@H](O)[C@H]3O)cc2)coc2cc(O)cc(O)c12` is reported as 30.1% (THP-1; pyroptotic LDH release; 2 µM, 40 min, added: LPS then nigericin).
The bioluminescence of `COC[C@H]1O[C@@H]2O[C@@H]3[C@@H](OC)[C@@H](OC)[C@@H](O[C@@H]4[C@@H](OC)[C@@H](OC)[C@@H](O[C@@H]5[C@@H](OC)[C@@H](OC)[C@@H](O[C@@H]6[C@@H](OC)[C@@H](OC)[C@@H](O[C@@H]7[C@@H](OC)[C@@H](OC)[C@@H](O[C@@H]1[C@@H](OC)[C@H]2OC)O[C@@H]7COC)O[C@@H]6COC)O[C@@H]5COC)O[C@@H]4COC)O[C@@H]3COC` is reported as 879 ± 22 RLU (Escherichia coli; LuxR reporter, agonist; DH5α sensor strain; 4 µM).
`CCCCN(Cc1c(-c2ccccn2)nc2ccc(C)cn12)c1ccc(F)cc1` gave a selectivity index of 3.2 (Leishmania infantum; MHOM/MA(BE)/67/ITMAP263; 120 h; baseline: CC50 macrophages over EC50 amastigotes).
With `C[C@@H]1O[C@@H](OC[C@H]2O[C@@H](Oc3c(-c4ccc(O)c(O)c4)oc4cc(O)cc(O)c4c3=O)[C@H](O)[C@@H](O)[C@@H]2O)[C@H](O)[C@H](O)[C@H]1O` the IC50 was over 100 µM (human immunodeficiency virus 1; viral replication; TZM-bl cells, NL4-3 (CXCR4-tropic); 48 h).
`O=C1/C(=C/c2ccc3ccccc3c2O)NC(=S)N1c1ccccc1`: “inhibition zone diameter” 25 ± 0.5 mm (Bacillus cereus; ATCC 14579; concentration not given).
`CCCCCCCCCCCCCCCCOP(=O)([O-])OCC[N+](C)(C)C` has a selectivity index of 1.5 (Leishmania infantum; axenic amastigotes; baseline: IC50 HeLa over IC50 amastigotes).
With `CCOC(=O)c1cccc(Cn2ccc3ccc(-c4ccc5ccn(Cc6cccc(C(=O)O)c6)c5c4)cc32)c1` the IC50 was 9.71 µM (human immunodeficiency virus 1; viral attachment, MAGI cell; MAGI cells, Ba-L; 3 h postinfection washout, CCR5-tropic).
`O=C(O[C@@H]1O[C@@H]2COC(=O)c3cc(O)c(O)c(O)c3-c3c(cc(O)c(O)c3O)C(=O)O[C@H]([C@H]1O)[C@@H]2O)c1cc(O)c(O)c(O)c1` gave an MBC/MIC ratio of 8 (Streptococcus gordonii; broth microdilution).
For `CCOC(=O)CSC1=N/C(=C\c2ccc(C(C)C)cc2)C(=O)N1c1ccccc1`, “inhibition zone diameter” read 16 ± 0.55 mm (Bacillus cereus; ATCC 14579; concentration not given).
For `N#Cc1ccc(N/N=C/c2ccc(-c3ccc(/C=N/Nc4ccc(C#N)cc4)cc3)cc2)cc1`, antifungal activity read “inactive” (Candida and Aspergillus; concentration not given, strain panel).
`O=C1/C(=C/c2ccco2)CCC/C1=C\c1ccco1` has an LC50 of 20.1 µM (Aedes aegypti; larval mortality; fourth instar larvae; 72 h).
`Cc1cc(-c2cn[nH]c2-c2cccc(OCc3cccc(C#N)c3)c2)cc(C)n1` — result for antibacterial activity: “inactive” (anaerobic commensal bacteria; up to 128 µg/mL, aqueous solubility limit).
`Cc1cc(OC(C)C)ccc1C(=O)C(C)(C)NC(=O)c1sccc1C` has an inhibition of 8 ± 13.9% (Botrytis cinerea; germ tube elongation; B05.10; 0.001 µg/mL).
`COc1cccn2c(Nc3ccc(F)cc3)c(-c3ccccn3)nc12` has an IC50 of 8.3 µM and 8.06 µM (Leishmania infantum; macrophages, MHOM/MA(BE)/67/ITMAP263, amastigote).
`O=[N+]([O-])c1ccc(N2CCN(S(=O)(=O)c3ccc(Cl)cc3)CC2)cc1NCc1cccnc1` has a larval mortality of 22% (Aedes aegypti; 100 µM, 48 h, 1 instar larvae).
Under “zone of inhibition”, `O=C1C(Cl)=C(n2cncn2)C(=O)c2ccccc21` is recorded as 14 mm (Alternaria alternata; ITCC 4522; 10 µg/mL).
`Nc1ccc2cc3ccc(N)cc3nc2c1` gave an inhibition of -7.7% (THP-1; pyroptotic LDH release; 2 µM, 40 min, added: LPS then nigericin).
The inhibition of `NC[C@H]1O[C@H](O[C@H]2[C@H](O)[C@@H](O[C@H]3O[C@H](CO)[C@@H](O)[C@H](N)[C@H]3O)[C@H](N)C[C@@H]2N)[C@H](O)[C@@H](O)[C@@H]1O` is reported as 82% (Salmonella typhimurium; bacterial growth; concentration not given).
`O=c1c(O)c(-c2ccc(O)cc2)oc2cc(O[C@@H]3O[C@H](CO)[C@@H](O)[C@H](O)[C@H]3O)cc(O)c12` gave an MBC of 200 µg/mL (≈ 446 µM) (Streptococcus gordonii; ATCC 51656).
With `CC(=O)ON=C1C=CC(=C(C#N)c2ccccc2)C=C1` the MFC was 16 µg/mL (≈ 60.5 µM) (Candida parapsilosis; broth dilution; ATCC 22099; 48 h, 37 °C).
`COC(=O)[C@H](Cc1c[nH]c2ccccc12)NCc1cc2ccccc2nc1SC` gave a growth of 97% (Pseudomonas aeruginosa; 4 µg/mL, added: pentamidine 50 µM; baseline: control).
The IC50 of `O=C(O)C=Cc1ccc(O)cc1` is reported as over 100 µM (human immunodeficiency virus 1; viral replication; TZM-bl cells, BaL (CCR5-tropic); 48 h).
`COc1cc(N)c(NS(=O)(=O)c2ccc(N(C)C)cc2)cc1OC` has a selectivity index of over 1.2 (Leishmania infantum; intracellular amastigote growth; U-937 macrophages and HeLa; baseline: IC50 HeLa over IC50 amastigotes).
With `O=C1C[C@@H](c2ccc(O)cc2)Oc2cc(O)cc(O)c21` the IC50 was over 100 µM (human immunodeficiency virus 1; viral replication; TZM-bl cells, NL4-3 (CXCR4-tropic); 48 h).
The IC50 of `Cc1ccc2nc(-c3ccccc3)cn2c1` is reported as over 64 µM (Leishmania infantum; macrophages, MHOM/MA(BE)/67/ITMAP263, amastigote).
For `O=C1/C(=C/c2ccc(O)cc2O)NC(=S)N1c1ccccc1`, “inhibition zone diameter” read 15 ± 0.83 mm (Bacillus cereus; ATCC 14579; concentration not given).
With `COc1cccc2nc(-c3ccccn3)c(Nc3ccc(F)cc3)n12` the IC50 was 8.64 µM and 8.11 µM (Leishmania infantum; macrophages, MHOM/MA(BE)/67/ITMAP263, amastigote).
The MIC90 of `CC(=O)NC[C@H]1CN(c2ccc(N3CCOCC3)c(F)c2)C(=O)O1` is reported as 4 µg/mL (≈ 11.9 µM) (Staphylococcus epidermidis; broth microdilution; methicillin-resistant isolates).

Excerpt of the above:
`N=C(N)c1ccc(OCc2cccc(COc3ccc(C(=N)N)cc3)c2)cc1` — result for “MIC in combination”: 6.25 µg/mL (Escherichia coli; ATCC 25922; concentration not given, added: rifampicin).
For `Nc1nc(-c2ccccc2)nc2[nH]nc(Nc3ccc(C(F)(F)F)cc3)c12`, the clinical score was 0 (coxsackievirus B3; 31-1-93, NMRI mice, CVB3 chronic myocarditis; oral, 100 mg/kg twice daily, day 3, dosed days 0 to 6, score scale 0 to 7; direction not given).
